{"data": "Published values of several laboratories", "cell line": "MCF7"}
{"SMILES": "N#Cc1ccccc1N=NNc1ccccc1C#N", "assay": "cell growth or viability, LDH", "measurement": "IC50", "value": "1450 nM"}
{"SMILES": "CC[P](CC)(CC)=[Au][S][C@@H]1O[C@H](COC(C)=O)[C@@H](OC(C)=O)[C@H](OC(C)=O)[C@H]1OC(C)=O", "assay": "cell growth or viability, resazurin", "setting": "72 h", "measurement": "EC50", "value": "4.09 µM"}
{"SMILES": "COc1ccccc1N=NNc1ccccc1OC", "assay": "cell growth or viability, LDH", "measurement": "IC50", "value": "2170 nM"}
{"SMILES": "N.N.[Cl][Pt][Cl]", "assay": "cell growth or viability, MTT", "setting": "48 h", "measurement": "IC50", "value": "7240 nM"}
{"SMILES": "COc1cc([C@@H]2c3cc4c(cc3[C@@H](O[C@@H]3O[C@@H]5CO[C@@H](C)O[C@H]5[C@H](O)[C@H]3O)[C@H]3COC(=O)[C@H]23)OCO4)cc(OC)c1O", "setting": "50 µM, 48 h", "measurement": "cell death", "value": "10 to 30%"}
{"SMILES": "CN[C@@H]1C[C@H]2O[C@@](C)([C@@H]1OC)n1c3ccccc3c3c4c(c5c6ccccc6n2c5c31)C(=O)NC4", "assay": "cell cycle analysis", "setting": "10 µg/mL, 24 h", "measurement": "pre-G1 cells", "value": "31.7%"}
{"SMILES": "NNC(=O)Cn1c2ccccc2c2cn[nH]c(=O)c21", "assay": "RT-PCR, measured: Bcl-2", "setting": "5 µM, 48 h, normalised to β-actin", "scale": "baseline: untreated", "measurement": "fold change", "value": 0.38}
{"SMILES": "CC[C@H](C)[C@H](NC(=O)[C@@H](N)Cc1ccccc1)C(=O)NCC(=O)N[C@H](C(=O)N[C@@H](CC(C)C)C(=O)N[C@H](C(=O)N1CCC[C@H]1C(=O)N[C@@H](CC(C)C)C(=O)N[C@@H](C)C(=O)N[C@@H](CC(C)C)C(=O)NCC(=O)N[C@@H](C)C(=O)N[C@@H](CC(C)C)C(=O)N[C@H](C(=O)N[C@@H](CCCCN)C(=O)N[C@@H](CC(C)C)C(=O)N[C@@H](Cc1ccccc1)C(=O)N[C@@H](CCCCN)C(N)=O)[C@@H](C)O)[C@@H](C)CC)[C@@H](C)O", "assay": "cell growth or viability, CCK-8", "setting": "24 h", "measurement": "IC50", "value": "11200 nM"}
{"SMILES": "O=[N+]([O-])c1ccc(N=NNc2ccccc2O)cc1", "assay": "cell growth or viability, LDH", "measurement": "IC50", "value": "1780 nM"}
{"SMILES": "CC[C@H](C)[C@H](NC(=O)[C@H](CCCCN)NC(=O)[C@H](CCCCN)NC(=O)[C@H](CC(C)C)NC(=O)[C@@H](NC(=O)[C@H](CCCCN)NC(=O)[C@H](C)NC(=O)[C@H](C)NC(=O)[C@@H](NC(=O)CNC(=O)[C@H](C)NC(=O)[C@@H](NC(=O)[C@@H](NC(=O)[C@@H]1CCCN1C(=O)[C@H](Cc1ccccc1)NC(=O)[C@@H](N)Cc1ccccc1)[C@@H](C)CC)C(C)C)C(C)C)C(C)C)C(=O)N[C@@H](Cc1ccccc1)C(=O)N[C@H]1CSSC[C@@H](C(=O)O)NC(=O)[C@H](CCCCN)NC(=O)[C@H](CCCCN)NC(=O)[C@H](CO)NC(=O)[C@H]([C@@H](C)CC)NC(=O)[C@H]([C@@H](C)O)NC1=O", "assay": "cell growth or viability, MTT", "measurement": "IC50", "value": "7600 nM"}
{"SMILES": "CC[C@H](C)[C@@H]([C@@H](CC(=O)N1CCC[C@H]1[C@H](OC)[C@@H](C)C(=O)N[C@@H](Cc1ccccc1)c1nccs1)OC)N(C)C(=O)[C@@H](NC(=O)[C@H](C(C)C)N(C)C)C(C)C", "assay": "cell growth or viability", "setting": "48 h", "measurement": "IC50", "value": "0.055 nM"}
{"SMILES": "C=C1C[C@@H]2[C@H](CC[C@]3(C)C(=O)CC[C@@H]23)[C@@]2(C)C=CC(=O)C=C12", "assay": "cell proliferation, BrdU", "setting": "100 nM, 48 h, together with: DHEA 5 µM", "measurement": "inhibition", "value": "~50%"}
{"SMILES": "COc1cc(/C=C/C(O)=C/C(=O)/C=C/c2ccc(O)cc2)ccc1O", "assay": "cell growth or viability, MTT", "setting": "48 h", "measurement": "IC50", "value": "22.1 µg/mL"}
{"SMILES": "CCCCCc1cc(O)c2c(c1)OC(C)(C)c1ccc(C)cc1-2", "assay": "cell growth or viability, MTT", "setting": "72 h", "measurement": "IC50", "value": "44900 nM"}
{"SMILES": "COC1=CC(=O)N(C(=O)[C@@H](OC(=O)[C@@H]2CCCN2C(=O)[C@@H]2CCCN2C(=O)[C@H](C(C)C)N(C)C(=O)[C@@H](NC(=O)[C@H](C(C)C)N(C)C)C(C)C)C(C)C)[C@H]1Cc1ccccc1", "assay": "cell growth or viability", "setting": "48 h", "measurement": "IC50", "value": "0.19 nM"}
{"note": "For quick reference, copied from above:"}
{"SMILES": "CC[C@H](C)[C@H](NC(=O)[C@H](CCCCN)NC(=O)[C@H](CCCCN)NC(=O)[C@H](CC(C)C)NC(=O)[C@@H](NC(=O)[C@H](CCCCN)NC(=O)[C@H](C)NC(=O)[C@H](C)NC(=O)[C@@H](NC(=O)CNC(=O)[C@H](C)NC(=O)[C@@H](NC(=O)[C@@H](NC(=O)[C@@H]1CCCN1C(=O)[C@H](Cc1ccccc1)NC(=O)[C@@H](N)Cc1ccccc1)[C@@H](C)CC)C(C)C)C(C)C)C(C)C)C(=O)N[C@@H](Cc1ccccc1)C(=O)N[C@H]1CSSC[C@@H](C(=O)O)NC(=O)[C@H](CCCCN)NC(=O)[C@H](CCCCN)NC(=O)[C@H](CO)NC(=O)[C@H]([C@@H](C)CC)NC(=O)[C@H]([C@@H](C)O)NC1=O", "assay": "cell growth or viability, MTT", "measurement": "IC50", "value": "7600 nM"}
{"SMILES": "CC[C@H](C)[C@@H]([C@@H](CC(=O)N1CCC[C@H]1[C@H](OC)[C@@H](C)C(=O)N[C@@H](Cc1ccccc1)c1nccs1)OC)N(C)C(=O)[C@@H](NC(=O)[C@H](C(C)C)N(C)C)C(C)C", "assay": "cell growth or viability", "setting": "48 h", "measurement": "IC50", "value": "0.055 nM"}
{"SMILES": "C=C1C[C@@H]2[C@H](CC[C@]3(C)C(=O)CC[C@@H]23)[C@@]2(C)C=CC(=O)C=C12", "assay": "cell proliferation, BrdU", "setting": "100 nM, 48 h, together with: DHEA 5 µM", "measurement": "inhibition", "value": "~50%"}
